Measurements of several laboratories.
Protocols differ between the studies behind these lines. ± marks the error that the study gave.

`[H]/N=C(/N)c1ccc(NCc2nc3cc(C(=O)N(CCC(=O)O)c4ccccn4)ccc3n2C)cc1` has an AUC(0-t) of 970 ng·h/mL (healthy human subjects, plasma; oral, 150 mg, dabigatran etexilate alone, geometric mean).
`CCN1CCN(Cc2ccc(Nc3ncc(F)c(-c4cc(F)c5nc6n(c5c4)[C@H](C)CCC6)n3)nc2)CC1` has an AUC(0-t) of 6340 ng·h/mL (human, plasma; 200 mg single dose, mean).
`COc1cc(-c2cnc3cc(OCCN4CCOCC4)ccn23)cc2c1C(=O)N(CC(F)(F)F)CC2` gave an AUC(0-t) of 7660 ng·h/mL (LC-MS; human, plasma; oral, 350 mg, day 5, with: methotrexate 7.5 mg).
The AUC(0-t) of `CC(C)NC(=O)COc1cccc(-c2nc(Nc3ccc4[nH]ncc4c3)c3ccccc3n2)c1` is reported as 13700 ng·h/mL (human, male, fed, plasma; oral, 200 mg once daily, day 8, geometric mean, with: raltegravir).
The AUC(0-t) of `C=CC(=O)N1C[C@H](Nc2ncnc3[nH]ccc23)CC[C@@H]1C` is reported as 448 ng·h/mL (human, plasma; oral, 50 mg single dose, alone without rifampicin).
`Cc1cc(-c2nnc(N)nc2-c2ccc(F)cc2)cc(Cl)n1` gave an AUC(0-t) of 5670 ng·h/mL (human patients, plasma; oral, 75 mg capsule once daily, multiple doses, arithmetic mean).
`CO[C@H]1CC[C@H](N2C(=O)CNc3ncc(-c4ccc(C(C)(C)O)nc4)nc32)CC1` gave an AUC(0-t) of 2080 ng·h/mL (human, plasma; oral, 60 mg, day -1, geometric mean).
`NC1(C(=O)N[C@@H](CCO)c2ccc(Cl)cc2)CCN(c2nc[nH]c3nccc2-3)CC1` gave an AUC(0-t) of 5030 ng·h/mL (human patients, plasma; dose not given, cohort 160/400, cycle 0, geometric mean).
For `N#CN1C[C@H](n2nc(-c3ccc(Oc4ccc(Cl)cn4)cc3)c(C(N)=O)c2N)CCC12CC2`, the AUC(0-t) was 21200 ± 7480 ng·h/mL (human, fasted, plasma; oral, 600 mg).
`C=CCn1c(=O)c2cnc(Nc3ccc(N4CCN(C)CC4)cc3)nc2n1-c1cccc(C(C)(C)O)n1` gave an AUC(0-t) of 4.98 µM·h (human, plasma; oral, 125 mg twice daily, day -5 lead-in, geometric mean, monotherapy).
With `C[C@H]1[C@@H](O)O[C@@H]2O[C@@]3(C)CC[C@H]4[C@H](C)CC[C@@H]1[C@@]24OO3` the AUC(0-t) was 1470 ng·h/mL (human, both sexes, plasma; oral, dose not given, non-fixed combination).
With `Cl.[2H]C([2H])([2H])CC(=O)c1cnc(NC(=O)C2CC2)cc1Nc1cccc(-c2ncn(C([2H])([2H])[2H])n2)c1OC` the AUC(0-t) was 794 ng·h/mL (geometric mean; human; oral, 10 mg single dose, fasted, liquid).
For `Cc1cc(C)c(CNC(=O)c2cc(Cl)c3c(c2C)O[C@@](C)([C@H]2CC[C@H](N(C)C)CC2)O3)c(=O)[nH]1`, the AUC(0-t) was 3110 ng·h/mL (geometric LS mean; healthy male humans, plasma; oral, dose not given, with: itraconazole).
`Cn1cc(-c2cn3nccc3c(-c3cnn([C@]4(CC#N)C[C@@H](C#N)C4)c3)n2)cn1` gave an AUC(0-t) of 1380 ng·h/mL (healthy humans fasted, plasma; 100 mg single dose, geometric mean).
For `Cc1ccc(=O)n(-c2ccccc2)c1`, the AUC(0-t) was 41800 ng·h/mL (healthy human; oral, 600 mg single, alone; arithmetic mean).
With `CO[C@@H]1[C@H](OC(=O)N2CC(CCN3CCOCC3)C2)CC[C@]2(CO2)[C@H]1[C@@]1(C)O[C@@H]1CC=C(C)C` the AUC(0-t) was 2.35 ± 0.8 ng·h/mL (humans, plasma; subcutaneous, 0.6 mg twice weekly, fifth dose).
With `CCCn1cc(C)c2c(=O)[nH]c(-c3cc(S(=O)(=O)N4CCN(CC)CC4)ccc3OCC)nc21` the AUC(0-t) was 294 ± 184 ng·h/mL (human, plasma; oral, 100 mg, with: alcoholic beverage 0.5 g/kg).
The AUC(0-t) of `CC(C)n1c(Nc2cccnc2)nc2cnc(Nc3ccc(N4CCN(C)CC4)cc3)nc21` is reported as 858 ng·h/mL (LC-MS/MS; human, male, plasma; oral, 100 mg, day 1, single dose, given alone).
With `Cn1cncc1[C@@](N)(c1ccc(Cl)cc1)c1ccc2c(c1)c(-c1cccc(Cl)c1)cc(=O)n2C` the AUC(0-t) was 4800 ng·h/mL (human patients; oral, 200 mg/m2, first dose, cycle 1, median).
For `CO[C@H]1C[C@@H]2CC[C@@H](C)[C@@](O)(O2)C(=O)C(=O)N2CCCC[C@H]2C(=O)O[C@H]([C@H](C)C[C@@H]2CC[C@@H](OC(=O)NCCOCCOCCOCCOCCOCCOCCOCCOCCC(=O)N3CCc4cc(Cn5nc(-c6ccc7oc(N)nc7c6)c6c(N)ncnc65)ccc4C3)[C@H](OC)C2)C[C@@H](O)[C@H](C)/C=C(\C)[C@@H](O)[C@@H](OC)C(=O)[C@H](C)C[C@H](C)/C=C/C=C/C=C/1C`, the AUC(0-t) was 441 ng·h/mL (human, plasma; intravenous, 6 mg, cycle 1 day 15, arithmetic mean).
`CC(=O)O[C@H]1C(=O)[C@@]2(C)[C@H]([C@H](OC(=O)c3ccccc3)[C@]3(O)C[C@H](OC(=O)[C@H](O)[C@@H](NC(=O)c4ccccc4)c4ccccc4)C(C)=C1C3(C)C)[C@]1(OC(C)=O)CO[C@@H]1C[C@@H]2O` gave an AUC(0-t) of 4480 ng·h/mL (human, plasma; intravenous infusion, 80 mg/m^2, day 5, with oral co-drug daily).
`CCCOc1ccc(NC(=O)CN2CCN(C)CC2)cc1-c1nc(CC)c(CC)c(=O)[nH]1` gave an AUC(0-t) of 570 ± 80.4 ng·h/mL (human, fasting, plasma; oral, 10 mg, with: alcohol 0.5 g/kg).
`CC(C)=CCC/C(C)=C/CC/C(C)=C/CC[C@@](C)(O)CCC1=C(C)C(=O)C(C)=C(C)C1=O` gave an AUC(0-t) of 3930 ng·h/mL (healthy human, plasma; oral, 400 mg, single dose, alone).
`COC(=O)N[C@@H](C)CNc1nccc(-c2cn(C(C)C)nc2-c2cc(Cl)cc(NS(C)(=O)=O)c2F)n1` gave an AUC(0-t) of 24500 ng·h/mL (human patients, plasma; oral, 450 mg twice daily, day 1, single dose, geometric mean, with: binimetinib 45 mg once daily).
For `C[C@H]1CN(C(=O)CC#N)[C@]12CCN(c1ncnc3[nH]ccc13)C2`, the AUC(0-t) was 51 ng·h/mL (healthy human, plasma; oral, 3 mg single, median).
The AUC(0-t) of `C[C@H]1[C@H](OC(=O)CCC(=O)O)O[C@@H]2O[C@@]3(C)CC[C@H]4[C@H](C)CC[C@@H]1[C@@]24OO3` is reported as 169 ng·h/mL (human, both sexes, plasma; oral, dose not given, fixed-dose combination).
For `Cc1[nH]c(/C=C2\C(=O)Nc3ccc(F)cc32)c(C)c1C(=O)N[C@H]1CCN(C(=O)N(C)C)C1`, the AUC(0-t) was 4300 ± 2170 ng·h/mL (human patients, plasma; oral, 100 mg single dose, with: everolimus 5 mg).
The AUC(0-t) of `CN(C(=O)C(C)(C)c1cc(C(F)(F)F)cc(C(F)(F)F)c1)c1cnc(N2C[C@H]3COCCN3C[C@H]2CO)cc1-c1ccc(F)cc1[14CH3]` is reported as 4160 ng equiv·h/mL (refers to: total radioactivity; human, whole blood; oral, 120 mg).
`CN1CCC(COc2cnc(-c3cccc(Cn4nc(-c5cccc(C#N)c5)ccc4=O)c3)nc2)CC1` gave an AUC(0-t) of 21400 ng·h/mL (human; dose not given, single dose, geometric mean, with: itraconazole 200 mg once daily).
The AUC(0-t) of `FC(F)(F)c1ccc(CNc2ccc(Cc3c[nH]c4ncc(Cl)cc34)cn2)cn1` is reported as 83400 ng·h/mL (refers to: total radioactivity; healthy human male, whole blood; oral, 400 mg [14C]-labelled).
`C=CC(=O)N(C)CCOc1c(N)ncnc1-c1cc(F)cc(NC(=O)c2ccc(C3CC3)cc2F)c1C` has an AUC(0-t) of 1160 ng·h/mL (human, whole blood; oral, 600 mg, single ascending dose).
With `COc1ccc([C@@H](O)c2cc(-c3ncnc4cc(N5CCOCC5)ccc34)c(F)cc2Cl)nn1` the AUC(0-t) was 1020 ng·h/mL (healthy human volunteers, plasma; oral, 100 mg single dose, tablet, fasted, geometric mean).
`CN(CC#N)C(=O)C[C@H](Nc1nc2ccccc2[nH]1)c1cccc(C(F)(F)F)c1` gave an AUC(0-t) of 20600 ± 4300 ng·h/mL (human; intravenous infusion, 5 mg/kg, 1 mg/mL formulation).
`CC(C)c1nc(N(C)S(C)(=O)=O)nc(-c2ccc(F)cc2)c1/C=C/[C@@H](O)C[C@@H](O)CC(=O)O` has an AUC(0-t) of 54.6 ng·h/mL (human, plasma; oral, 20 mg, day 2, mean, alone).
`O=C(O)CCC(=O)O.[2H]C([2H])([2H])Oc1cc(C)c2[nH]ccc2c1CN1CC[C@@H](C2CC2)C[C@H]1c1ccc(C(=O)O)cc1` gave an AUC(0-t) of 56900 ng·h/mL (LC-MS/MS, geometric mean; human, plasma; 100 mg, single dose, fasting).
`C#C[C@]1(CO)O[C@@H](n2cnc3c(N)nc(F)nc32)C[C@@H]1O` has an AUC(0-t) of 44.7 µM·h (human, plasma; oral, 400 mg, single dose, geometric mean).
`CC[C@H](C)[C@@H]([C@@H](CC(=O)N1CCC[C@H]1[C@H](OC)[C@@H](C)C(=O)N[C@@H](Cc1ccccc1)C(=O)NCCCO)OC)N(C)C(=O)[C@@H](NC(=O)[C@H](C(C)C)N(C)C)C(C)C` gave an AUC(0-t) of 2100 ng·h/mL (human patients, plasma; intravenous, 43 mg/m², cycle 1 geometric mean).
With `COc1nnc2ccc(N3CCC(c4ccc(OCCN5CCN(C)C(=O)[C@H]5C)cc4)CC3)nn12` the AUC(0-t) was 0.0743 µM·h (human, plasma; oral, 2 mg once daily, multiple dose, monotherapy).
The AUC(0-t) of `CNC(=O)n1ccc2cc(Oc3ccnc(NC(=O)c4ccc(C5CCN(CCO)CC5)cc4)c3)c(OCCOC)cc21` is reported as 126 ng·h/mL (healthy human, plasma; oral, 35 mg, fasted).
For `NC[C@@]1(CC(=O)O)[C@@H]2CC[C@H]3C[C@@H]2[C@@H]1C3`, the AUC(0-t) was 1730 ng·h/mL (human, normal renal function, plasma; dose not given, geometric least squares mean).

Some of these lines once more:
With `CO[C@@H]1[C@H](OC(=O)N2CC(CCN3CCOCC3)C2)CC[C@]2(CO2)[C@H]1[C@@]1(C)O[C@@H]1CC=C(C)C` the AUC(0-t) was 2.35 ± 0.8 ng·h/mL (humans, plasma; subcutaneous, 0.6 mg twice weekly, fifth dose).
With `CCCn1cc(C)c2c(=O)[nH]c(-c3cc(S(=O)(=O)N4CCN(CC)CC4)ccc3OCC)nc21` the AUC(0-t) was 294 ± 184 ng·h/mL (human, plasma; oral, 100 mg, with: alcoholic beverage 0.5 g/kg).
The AUC(0-t) of `CC(C)n1c(Nc2cccnc2)nc2cnc(Nc3ccc(N4CCN(C)CC4)cc3)nc21` is reported as 858 ng·h/mL (LC-MS/MS; human, male, plasma; oral, 100 mg, day 1, single dose, given alone).
With `Cn1cncc1[C@@](N)(c1ccc(Cl)cc1)c1ccc2c(c1)c(-c1cccc(Cl)c1)cc(=O)n2C` the AUC(0-t) was 4800 ng·h/mL (human patients; oral, 200 mg/m2, first dose, cycle 1, median).
For `CO[C@H]1C[C@@H]2CC[C@@H](C)[C@@](O)(O2)C(=O)C(=O)N2CCCC[C@H]2C(=O)O[C@H]([C@H](C)C[C@@H]2CC[C@@H](OC(=O)NCCOCCOCCOCCOCCOCCOCCOCCOCCC(=O)N3CCc4cc(Cn5nc(-c6ccc7oc(N)nc7c6)c6c(N)ncnc65)ccc4C3)[C@H](OC)C2)C[C@@H](O)[C@H](C)/C=C(\C)[C@@H](O)[C@@H](OC)C(=O)[C@H](C)C[C@H](C)/C=C/C=C/C=C/1C`, the AUC(0-t) was 441 ng·h/mL (human, plasma; intravenous, 6 mg, cycle 1 day 15, arithmetic mean).
`CC(=O)O[C@H]1C(=O)[C@@]2(C)[C@H]([C@H](OC(=O)c3ccccc3)[C@]3(O)C[C@H](OC(=O)[C@H](O)[C@@H](NC(=O)c4ccccc4)c4ccccc4)C(C)=C1C3(C)C)[C@]1(OC(C)=O)CO[C@@H]1C[C@@H]2O` gave an AUC(0-t) of 4480 ng·h/mL (human, plasma; intravenous infusion, 80 mg/m^2, day 5, with oral co-drug daily).
`CCCOc1ccc(NC(=O)CN2CCN(C)CC2)cc1-c1nc(CC)c(CC)c(=O)[nH]1` gave an AUC(0-t) of 570 ± 80.4 ng·h/mL (human, fasting, plasma; oral, 10 mg, with: alcohol 0.5 g/kg).
